Assay results pooled from the literature.
A part holds a random share of what one study measured. Substitutions count along the parent as printed.

Series 1 — method: universal PBM; molecule type: double-stranded DNA, one strand shown; sample: in vitro; concentration: not given; direction: higher = stronger binding
Target: Sal-like protein 4, full length isoform B (SALL4, Homo sapiens, UniProt Q9UJQ4-2, residues 1-616)
Setting: 8-mer, flanks averaged, mean of replicates
Target sequence (chain): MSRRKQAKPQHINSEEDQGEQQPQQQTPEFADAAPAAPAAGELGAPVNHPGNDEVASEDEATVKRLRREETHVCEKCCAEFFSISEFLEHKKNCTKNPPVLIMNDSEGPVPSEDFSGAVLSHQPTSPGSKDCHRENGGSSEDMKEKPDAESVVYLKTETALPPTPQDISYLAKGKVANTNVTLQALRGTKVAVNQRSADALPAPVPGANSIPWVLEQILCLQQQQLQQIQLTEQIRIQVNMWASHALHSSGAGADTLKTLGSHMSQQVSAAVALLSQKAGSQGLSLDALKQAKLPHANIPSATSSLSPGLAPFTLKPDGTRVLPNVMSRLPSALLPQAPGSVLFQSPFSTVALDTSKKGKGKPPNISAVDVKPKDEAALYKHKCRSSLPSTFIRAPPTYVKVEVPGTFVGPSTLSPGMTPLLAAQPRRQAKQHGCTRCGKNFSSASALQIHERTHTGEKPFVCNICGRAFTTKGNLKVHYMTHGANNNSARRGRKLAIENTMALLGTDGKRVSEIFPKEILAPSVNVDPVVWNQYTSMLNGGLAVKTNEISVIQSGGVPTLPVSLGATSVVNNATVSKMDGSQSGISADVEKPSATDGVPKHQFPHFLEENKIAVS
`AATCACTA` gave an E-score of 0.13.
`GACGGCAC` gave an E-score of -0.281.
The E-score of `CATTACGG` is reported as -0.0792.
`CGGTTTAG` gave an E-score of -0.133.
`CCTATCCG` gave an E-score of -0.218.
`ATCAGGTC` gave an E-score of -0.0553.
`CCTTACGA` has an E-score of -0.0531.
The E-score of `GTGCAACA` is reported as -0.0783.
`AAGACTAG` gave an E-score of 0.0248.
The E-score of `TCCGTCCA` is reported as -0.0982.
With `CGATACTC` the E-score was -0.0768.
`CCATACAC` has an E-score of -0.028.
With `AAGATAAC` the E-score was 0.18.
With `CCGACCCC` the E-score was -0.331.
With `AGCATAGG` the E-score was -0.181.
`AAGTGAAA` has an E-score of 0.141.
`CTGTTTTC` has an E-score of 0.12.
`AGACACCA` has an E-score of -0.0248.
`ATAGCTGA` gave an E-score of 0.0907.
For `ATCGTGGA`, the E-score was 0.0262.

Series 2 — method: protein binding microarray; molecule type: double-stranded DNA, one strand shown; sample: in vitro; concentration: not given; reference: not given; direction: higher = stronger binding
Target: Histone acetyltransferase KAT6A, winged helix 2, GST fusion (KAT6A, Homo sapiens, UniProt Q92794, residues 85-181)
Setting: 8-mer, flanks averaged, mean of 2 arrays, mostly near background
Residues (chain): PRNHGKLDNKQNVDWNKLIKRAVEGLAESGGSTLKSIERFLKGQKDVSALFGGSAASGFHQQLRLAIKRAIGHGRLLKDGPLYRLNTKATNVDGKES
`ATTAATTC` gave an E-score of 0.177.
`CCCAGAAA` gave an E-score of 0.0466.
The E-score of `AACCATAT` is reported as -0.0851.
`ATAAGATA` gave an E-score of 0.122.
`ATGCGACC` has an E-score of 0.242.
`CACTGCAG` has an E-score of 0.0753.
For `CAATGTCG`, the E-score was -0.0939.
With `CAGCCTTC` the E-score was -0.0265.
`CAGGGTGC` gave an E-score of -0.119.
The E-score of `AATCCAGT` is reported as -0.0653.
`CACCGAAG` has an E-score of 0.0231.
`CCGGATCG` gave an E-score of 0.116.
With `GGTACCCA` the E-score was 0.0745.
With `CCGTTTCG` the E-score was 0.118.
With `GTCAGAAA` the E-score was -0.0147.
With `AAACTTAC` the E-score was -0.197.
For `GTTTTTGA`, the E-score was 0.0329.
`CGTAGTCA` has an E-score of -0.208.
`CCTTCCGA` has an E-score of 0.105.

Series 3 — method: protein-binding microarray; molecule type: double-stranded DNA, one strand shown; sample: in vitro; concentration: 0.8 µM; setting: whole 60-bp probe, no competitor; direction: higher = stronger binding
Target: Centromere-binding protein 1, full length, N-terminal tag (CBF1, Saccharomyces cerevisiae, UniProt P17106, residues 1-351)
Sequence of UniProt P17106 (whole entry, looked up): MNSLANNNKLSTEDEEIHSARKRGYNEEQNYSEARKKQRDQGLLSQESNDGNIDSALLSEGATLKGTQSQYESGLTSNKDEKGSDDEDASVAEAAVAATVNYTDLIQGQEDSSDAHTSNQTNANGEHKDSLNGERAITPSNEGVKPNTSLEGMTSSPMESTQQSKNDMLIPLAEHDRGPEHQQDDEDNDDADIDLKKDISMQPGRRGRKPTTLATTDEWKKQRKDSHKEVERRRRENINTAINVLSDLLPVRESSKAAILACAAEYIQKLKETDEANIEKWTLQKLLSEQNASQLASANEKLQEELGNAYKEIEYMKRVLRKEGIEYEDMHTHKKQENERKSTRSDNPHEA
For `CTATACCCAACATGTCACGTTTCACGAATTCTCTTCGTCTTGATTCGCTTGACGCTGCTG`, the fluorescence intensity was 2500 a.u.
With `CCTAACTACTATAAATATGTGACATAGCTTCGTACAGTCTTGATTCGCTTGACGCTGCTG` the fluorescence intensity was 518 a.u.
`GAATTTACCAAAGATAAAATCACGTATAACATTTAGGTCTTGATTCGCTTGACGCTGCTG` gave a fluorescence intensity of 1520 a.u.
`CTATTCAGCTGTCACCACCAGTTTTAGGCCCTATTCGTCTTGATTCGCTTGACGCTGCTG` has a fluorescence intensity of 507 a.u.
`CCTAACTACTATAGAGGCATGACATAGCTTCGTACAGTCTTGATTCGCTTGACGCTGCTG` has a fluorescence intensity of 559 a.u.
`CTATGAAATAACATACACACGTGTAAGAATATATTCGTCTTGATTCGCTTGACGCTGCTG` has a fluorescence intensity of 5140 a.u.
For `CTAAGTTCTGCTCATCTCATCACCAGTAAAAAATTCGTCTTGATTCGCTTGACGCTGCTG`, the fluorescence intensity was 558 a.u.
The fluorescence intensity of `CCTAACTACTATAGTACTCAGGTATAGCTTCGTACAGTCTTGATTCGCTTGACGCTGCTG` is reported as 494 a.u.
The fluorescence intensity of `CTAGAAGATTACATAGTGATGATGATCGTGACATTCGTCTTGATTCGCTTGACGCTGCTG` is reported as 640 a.u.
With `CCTAACTACTATATCGGTCAGGTATAGCTTCGTACAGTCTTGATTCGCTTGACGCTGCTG` the fluorescence intensity was 523 a.u.
The fluorescence intensity of `GAAGGAATCTGCGTTACTCACATGTGCAGATATTAGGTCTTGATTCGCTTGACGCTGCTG` is reported as 1550 a.u.
`GAACTGGGGTAATCACATGTGATATCTAAGAGATAGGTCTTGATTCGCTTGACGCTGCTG` has a fluorescence intensity of 4020 a.u.
The fluorescence intensity of `CTATGCTTGTGAGTGCACGTGTATACGCTATGCTTCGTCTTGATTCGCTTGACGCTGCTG` is reported as 5470 a.u.
`CTAGACGCAAGACACCACCAGAACCAAGAGCATTTCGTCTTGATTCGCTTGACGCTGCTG` has a fluorescence intensity of 520 a.u.

Series 4 — target: CCNE2, cyclin fold, Cln2 fusion (human); method: yeast growth competition, sequencing; sample: yeast; setting: weak parent motif; reference: not given; direction: higher = stronger binding
Starting sequence: CDKN1C docking peptide (human); TSACRSLFGPVDH
For `H13A`, “normalised enrichment score” read 0.74.
For `R5A`, “normalised enrichment score” read -0.424.
Under “normalised enrichment score”, `P10A` is recorded as 0.842.
Under “normalised enrichment score”, `G9A` is recorded as 1.08.
For `S6A`, “normalised enrichment score” read 1.13.
`D12A` — result for “normalised enrichment score”: 0.731.
`R5K` — result for “normalised enrichment score”: 0.465.

Series 5 — method: DHFR PCA, deep sequencing; sample: yeast; with: (+)-ABA 2500 µM; reference: wild-type fitted maximum; direction: higher = stronger binding
Target: ABI1, truncated, D143A, DHFR fusion (Arabidopsis thaliana)
Setting: methotrexate growth selection, single substitutions
Starting sequence: PYL1, truncated, DHFR fusion (Arabidopsis thaliana); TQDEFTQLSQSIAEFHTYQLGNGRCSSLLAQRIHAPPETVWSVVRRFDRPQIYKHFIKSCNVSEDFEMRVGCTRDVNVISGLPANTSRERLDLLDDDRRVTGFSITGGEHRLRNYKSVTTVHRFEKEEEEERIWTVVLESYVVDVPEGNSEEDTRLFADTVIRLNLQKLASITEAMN; partner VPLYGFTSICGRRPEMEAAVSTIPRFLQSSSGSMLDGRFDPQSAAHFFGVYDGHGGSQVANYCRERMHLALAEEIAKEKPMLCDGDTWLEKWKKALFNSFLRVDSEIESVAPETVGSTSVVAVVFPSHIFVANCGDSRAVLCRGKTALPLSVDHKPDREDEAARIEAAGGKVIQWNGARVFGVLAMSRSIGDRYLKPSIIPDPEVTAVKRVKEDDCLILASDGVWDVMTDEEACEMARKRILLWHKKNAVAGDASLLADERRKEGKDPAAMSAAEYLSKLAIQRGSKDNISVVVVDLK
`T173L`: “relative binding score” 86.2%.
For `V137N`, “relative binding score” read 6.14%.
Under “relative binding score”, `C25K` is recorded as 73.9%.
`Y141A` — result for “relative binding score”: 9.07%.
For `P37H`, “relative binding score” read 81.4%.
`M68T` — result for “relative binding score”: 93.7%.
`Y18I` — result for “relative binding score”: 93%.
`S42R` — result for “relative binding score”: 103%.
`R69W`: “relative binding score” 79.6%.
For `Q31T`, “relative binding score” read 74.9%.
For `V118P`, “relative binding score” read 13.9%.
Under “relative binding score”, `E147T` is recorded as 94.1%.
Under “relative binding score”, `G71S` is recorded as 86.3%.
`S26E` — result for “relative binding score”: 80.5%.
Under “relative binding score”, `R132Y` is recorded as 89.5%.
`I79T`: “relative binding score” 102%.
Under “relative binding score”, `H122C` is recorded as 92.4%.
Under “relative binding score”, `L93T` is recorded as 104%.
`S150R` — result for “relative binding score”: 89.4%.
`Q10T` — result for “relative binding score”: 106%.
